Published values gathered from unrelated publications.
Lines come from different studies, so protocols differ. Numbers after ± are the reported error.
T1: PDHA1/PDHB 30-390 E234A on β (Homo sapiens); chain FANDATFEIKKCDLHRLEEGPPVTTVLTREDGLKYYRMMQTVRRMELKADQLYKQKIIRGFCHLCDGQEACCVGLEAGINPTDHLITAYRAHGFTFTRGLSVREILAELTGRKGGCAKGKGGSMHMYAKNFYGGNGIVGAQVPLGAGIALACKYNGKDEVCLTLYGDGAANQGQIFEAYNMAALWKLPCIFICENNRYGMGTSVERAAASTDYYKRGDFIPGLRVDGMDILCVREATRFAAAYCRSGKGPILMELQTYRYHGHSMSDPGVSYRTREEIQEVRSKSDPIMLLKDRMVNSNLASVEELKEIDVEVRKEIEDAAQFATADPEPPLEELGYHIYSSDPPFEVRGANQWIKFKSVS; chain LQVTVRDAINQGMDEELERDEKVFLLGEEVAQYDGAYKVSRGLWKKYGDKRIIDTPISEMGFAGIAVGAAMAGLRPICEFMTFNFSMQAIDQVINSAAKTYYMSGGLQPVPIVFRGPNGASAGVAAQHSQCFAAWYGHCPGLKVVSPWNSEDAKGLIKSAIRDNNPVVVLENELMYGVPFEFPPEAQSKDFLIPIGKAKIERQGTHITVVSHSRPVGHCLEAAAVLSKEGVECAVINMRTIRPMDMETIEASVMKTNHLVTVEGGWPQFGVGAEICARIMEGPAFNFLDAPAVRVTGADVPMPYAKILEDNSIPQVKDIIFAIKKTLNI
B1: enzyme (Bacillus pumilus, UniProt A8FFI9); chain EARSIAWSVDEFFKNREGTFVIQEVKEKSPWVYNKKRAKERFAPQSTFKVANALIGLQTGAVRDEYDIKYWDGVKREIDNWNRDHTLGSGMRDSVVWYYQAMARDIGEERMNHWVKAIHYGNKDISGGIDQFWLSSTLRISPIEQVRFLKQLYEETLPFDLKNMRTVKRMMVQEEEKHATLYGKTGSGSDIGWYVGFIKHEHKTYILATNIKGTGIEAKDITYRILKKYHLMEASV
B2: GET2 1-106 (Saccharomyces cerevisiae, UniProt P40056); Alexa594 label; sequence looked up; chain MSELTEAEKRRLLRERRQKKFSNGGASSRLNKITGQASSHLNAESPLDAPSAAKTTPPASVHSATPDIKEDSNVAPQLDLLKQLAAMQGQGTGKSTPQDSSTPDLL
B3: PHKG1 (Homo sapiens, UniProt Q16816); sequence looked up; chain MTRDEALPDSHSAQDFYENYEPKEILGRGVSSVVRRCIHKPTSQEYAVKVIDVTGGGSFSPEEVRELREATLKEVDILRKVSGHPNIIQLKDTYETNTFFFLVFDLMKRGELFDYLTEKVTLSEKETRKIMRALLEVICTLHKLNIVHRDLKPENILLDDNMNIKLTDFGFSCQLEPGERLREVCGTPSYLAPEIIECSMNEDHPGYGKEVDMWSTGVIMYTLLAGSPPFWHRKQMLMLRMIMSGNYQFGSPEWDDYSDTVKDLVSRFLVVQPQNRYTAEEALAHPFFQQYLVEEVRHFSPRGKFKVIALTVLASVRIYYQYRRVKPVTREIVIRDPYALRPLRRLIDAYAFRIYGHWVKKGQQQNRAALFENTPKAVLLSLAEEDY
B4: mel-26 (Caenorhabditis elegans, UniProt Q94420); sequence looked up; chain MEPRIDGGVFIGGIGNSGNEMCSNGVPALGVSSQTEIKVEKVQHTWTVKNFSHCYQEYLENFVYLQRGDEQLTWSIKIYPKGNGENNKDFVFLCLNRVINNNVKAGKIGFKSQFKLRTAENKDIEMRIHPNPSHSDYVSYIKRDVLFPQIMPRDMIIVNVEIDVAVETITTTNEPIQFEPTNSEQQLIEDYQRLFSQELLCDFAINVNGKIIRAHKAVLAARSPVFNAMLTHQDTDEAKSSMMYINDMDYDVIYEMVYYIYCGRCNKDITDMATALLIAADKYRLEELKSHCEKYLVENINIENACSLLIIGDLYSAPKLRKRAVTYILARPKNVTGTPGWEDILKGHPNLITDIFSQIDRQSSTGATSSVSNLPGVPMDIPGITGNIVPPPSGL
B5: UGT1A9 (Homo sapiens, UniProt O60656); chain GKLLVVPMDGSHWFTMRSVVEKLILRGHEVVVVMPEVSWQLGRSLNCTVKTYSTSYTLEDLDREFKAFAHAQWKAQVRSIYSLLMGSYNDIFDLFFSNCRSLFKDKKLVEYLKESSFDAVFLDPFDNCGLIVAKYFSLPSVVFARGILCHYLEEGAQCPAPLSYVPRILLGFSDAMTFKERVRNHIMHLEEHLLCHRFFKNALEIASEILQTPVTEYDLYSHTSIWLLRTDFVLDYPKPVMPNMIFIGGINCHQGKPLPMEFEAYINASGEHGIVVFSLGSMVSEIPEKKAMAIADALGKIPQTVLWRYTGTRPSNLANNTILVKWLPQNDLLGHPMTRAFITHAGSHGVYESICNGVPMVMMPLFGDQMDNAKRMETKGAGVTLNVLEMTSEDLENALKAVINDKSYKENIMRLSSLHKDRPVEPLDLAVFWVEFVMRHKGAPHLRPAAHDLTWYQYHSLDVIGFLLAVVLTVAFITFKCCAYGYRKCLGKKGRVKKAHKSKTH
B6: slc12a2 1-202 (Danio rerio, UniProt A0A0G2KTI4); sequence looked up; chain MSASPPISAGDYLSAPEPDALKPAGPTPSQSRFQVDLVTESAGDGETTVGFDSSPPEYVAEPPPDGLRDSVSGGEEAKGRFRVVNFAASSPDAAPAETAQNGDTVMSEGSLHSSTGGQQHHHYDTHTNTYYLRTFGHNTIDAVPKIDFYRQTAAPLGEKLIRPTLSELHDELDKEPFEDGFANGEELTPAEESAAKDVSESK
B7: Rrp47/Rrp6 (Saccharomyces cerevisiae); chain 1 MEDIEKIKPYVRSFSKALDELKPEIEKLTSKSLDEQLLLLSDERAKLELINRYAYVLSSLMFANMKVLGVKDMSPILGELKRVKSYMDKAKQYDNRITKSNEKSQAEQEKAKNIISNVLDGNKNQFEPSISRSNFQGKHTKFENDELAESTTTKIIDSTDHIRKASSKKSKRLDKVGKKKGGKK; chain 2 MTSENPDVLLSRVINVVRAASSLASQDVDFYKNLDRGFSKDLKSKADKLADMANEIILSIDEHHESFELKEEDISDLWNNFGNIMDNLLEMSDHSLDKLNCAINSKSRGSDLQYLGEFSGKNFSPTKRVEKPQLKFKSPIDNSESHPFIPLLKEKPNALKPLSESLRLVDDDENNPSHYPHPYEYEIDHQEYSPEILQIREEIPSKSWDDSVPIWVDTSTELESMLEDLKNTKEIAVDLEHHDYRSYYGIVCLMQISTRERDYLVDTLKLRENLHILNEVFTNPSIVKVFHGAFMDIIWLQRDLGLYVVGLFDTYHASKAIGLPRHSLAYLLENFANFKTSKKYQLADWRIRPLSKPMTAYARADTHFLLNIYDQLRNKLIESNKLAGVLYESRNVAKRRFEYSKYRPLTPSSEVYSPIEKESPWKILMYQYNIPPEREVLVRELYQWRDLIARRDDESPRFVMPNQLLAALVAYTPTDVIGVVSLTNGVTEHVRQNAKLLANLIRDALRNIKNTNEEATPIPSSETKADGILLETISVPQIRDVMERFSVLCNSNISKSRAKPVTNSSILLGKILPREEHDIAYSKDGLPNKVKTEDIRIRAQNFKSALANLEDIIFEIEKPLVVPVKLEEIKTVDPASAPNHSPEIDNLDDLVVLKKKNIQKKQPAKEKGVTEKDAVDYSKIPNILSNKPGQNNRQQKKRRFDPSSSDSNGPRAAKKRRPAAKGKNLSFKR
B8: DLAT 214-416 (Homo sapiens, UniProt P10515); sequence looked up; chain SYPPHMQVLLPALSPTMTMGTVQRWEKKVGEKLSEGDLLAEIETDKATIGFEVQEEGYLAKILVPEGTRDVPLGTPLCIIVEKEADISAFADYRPTEVTDLKPQVPPPTPPPVAAVPPTPQPLAPTPSAPCPATPAGPKGRVFVSPLAKKLAVEKGIDLTQVKGTGPDGRITKKDIDSFVPSKVAPAPAAVVPPTGPGMAPVP
UniProt P23458, sequence (whole entry, looked up): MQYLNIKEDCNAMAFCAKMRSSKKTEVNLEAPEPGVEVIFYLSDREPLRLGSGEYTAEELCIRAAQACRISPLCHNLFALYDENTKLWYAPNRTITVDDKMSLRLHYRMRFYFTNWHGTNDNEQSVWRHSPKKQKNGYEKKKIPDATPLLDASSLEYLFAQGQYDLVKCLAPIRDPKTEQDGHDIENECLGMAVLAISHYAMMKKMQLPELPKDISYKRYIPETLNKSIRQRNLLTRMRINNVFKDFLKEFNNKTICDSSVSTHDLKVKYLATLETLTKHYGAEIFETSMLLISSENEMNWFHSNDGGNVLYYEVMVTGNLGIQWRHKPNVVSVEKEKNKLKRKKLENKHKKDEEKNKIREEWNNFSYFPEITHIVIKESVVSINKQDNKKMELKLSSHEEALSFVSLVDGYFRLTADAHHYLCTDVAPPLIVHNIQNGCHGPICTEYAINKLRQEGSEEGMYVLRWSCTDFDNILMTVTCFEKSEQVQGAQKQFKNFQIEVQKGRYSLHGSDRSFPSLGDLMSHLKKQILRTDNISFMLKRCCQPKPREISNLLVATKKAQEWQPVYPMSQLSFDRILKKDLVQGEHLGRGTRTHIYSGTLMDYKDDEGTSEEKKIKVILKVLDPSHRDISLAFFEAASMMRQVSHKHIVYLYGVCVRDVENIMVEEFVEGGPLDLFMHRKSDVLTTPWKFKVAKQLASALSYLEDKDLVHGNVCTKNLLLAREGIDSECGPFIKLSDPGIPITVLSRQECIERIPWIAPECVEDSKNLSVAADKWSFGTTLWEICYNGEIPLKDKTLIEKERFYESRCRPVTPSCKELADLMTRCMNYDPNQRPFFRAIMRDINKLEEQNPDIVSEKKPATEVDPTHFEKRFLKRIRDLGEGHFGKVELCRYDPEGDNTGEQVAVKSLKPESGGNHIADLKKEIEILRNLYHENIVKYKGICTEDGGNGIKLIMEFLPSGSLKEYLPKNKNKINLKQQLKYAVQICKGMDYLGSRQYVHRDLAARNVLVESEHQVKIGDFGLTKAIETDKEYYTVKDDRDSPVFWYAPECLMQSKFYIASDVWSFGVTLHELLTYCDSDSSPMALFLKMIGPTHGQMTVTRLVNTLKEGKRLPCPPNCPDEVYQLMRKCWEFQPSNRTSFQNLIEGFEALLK
UniProt Q61851, sequence (whole entry, looked up): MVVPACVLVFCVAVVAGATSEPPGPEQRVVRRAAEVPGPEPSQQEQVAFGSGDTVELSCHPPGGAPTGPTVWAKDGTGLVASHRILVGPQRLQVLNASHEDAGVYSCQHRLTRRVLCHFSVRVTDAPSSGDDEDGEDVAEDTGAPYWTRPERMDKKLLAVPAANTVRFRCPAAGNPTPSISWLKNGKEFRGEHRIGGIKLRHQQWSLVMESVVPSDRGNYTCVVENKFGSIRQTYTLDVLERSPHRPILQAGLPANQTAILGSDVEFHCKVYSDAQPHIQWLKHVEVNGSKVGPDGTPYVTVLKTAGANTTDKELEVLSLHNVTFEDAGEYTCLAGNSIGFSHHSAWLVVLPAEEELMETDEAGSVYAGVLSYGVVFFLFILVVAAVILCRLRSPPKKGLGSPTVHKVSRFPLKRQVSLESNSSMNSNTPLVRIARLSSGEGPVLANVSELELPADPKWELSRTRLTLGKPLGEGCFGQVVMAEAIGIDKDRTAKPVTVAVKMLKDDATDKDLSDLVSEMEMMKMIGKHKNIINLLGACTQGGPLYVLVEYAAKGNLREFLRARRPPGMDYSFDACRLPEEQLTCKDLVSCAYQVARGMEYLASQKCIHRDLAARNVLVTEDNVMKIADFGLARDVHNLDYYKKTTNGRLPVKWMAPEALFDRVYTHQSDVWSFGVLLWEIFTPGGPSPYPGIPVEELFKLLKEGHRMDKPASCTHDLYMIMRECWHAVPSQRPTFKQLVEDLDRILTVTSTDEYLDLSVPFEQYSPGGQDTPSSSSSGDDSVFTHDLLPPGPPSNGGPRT
UniProt P55017, sequence (whole entry, unmodified, looked up): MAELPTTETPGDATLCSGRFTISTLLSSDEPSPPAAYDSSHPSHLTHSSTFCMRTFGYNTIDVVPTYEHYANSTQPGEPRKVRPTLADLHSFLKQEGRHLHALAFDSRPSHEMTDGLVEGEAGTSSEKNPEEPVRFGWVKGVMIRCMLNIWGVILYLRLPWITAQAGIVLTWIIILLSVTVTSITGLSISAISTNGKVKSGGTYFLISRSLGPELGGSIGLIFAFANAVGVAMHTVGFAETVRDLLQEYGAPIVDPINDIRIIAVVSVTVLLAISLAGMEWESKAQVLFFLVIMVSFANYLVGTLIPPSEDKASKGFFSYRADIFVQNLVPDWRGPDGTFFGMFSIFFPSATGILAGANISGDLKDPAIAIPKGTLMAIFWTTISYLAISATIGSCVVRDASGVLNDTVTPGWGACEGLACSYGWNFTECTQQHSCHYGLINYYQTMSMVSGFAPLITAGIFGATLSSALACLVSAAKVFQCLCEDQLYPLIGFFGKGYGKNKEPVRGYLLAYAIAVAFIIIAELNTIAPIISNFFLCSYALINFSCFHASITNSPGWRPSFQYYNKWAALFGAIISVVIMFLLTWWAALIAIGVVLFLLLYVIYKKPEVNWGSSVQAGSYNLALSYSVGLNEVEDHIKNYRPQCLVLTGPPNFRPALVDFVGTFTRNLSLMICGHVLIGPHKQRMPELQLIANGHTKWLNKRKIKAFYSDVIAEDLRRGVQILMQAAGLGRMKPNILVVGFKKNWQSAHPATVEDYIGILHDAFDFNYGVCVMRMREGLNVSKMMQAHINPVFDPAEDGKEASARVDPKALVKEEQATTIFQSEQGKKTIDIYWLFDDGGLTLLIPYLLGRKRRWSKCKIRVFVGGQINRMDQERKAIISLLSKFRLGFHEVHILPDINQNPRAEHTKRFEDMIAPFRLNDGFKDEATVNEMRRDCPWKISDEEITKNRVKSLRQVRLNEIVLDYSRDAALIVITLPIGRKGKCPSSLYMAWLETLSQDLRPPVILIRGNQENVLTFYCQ
UniProt A1ZAW0, sequence (whole entry, looked up): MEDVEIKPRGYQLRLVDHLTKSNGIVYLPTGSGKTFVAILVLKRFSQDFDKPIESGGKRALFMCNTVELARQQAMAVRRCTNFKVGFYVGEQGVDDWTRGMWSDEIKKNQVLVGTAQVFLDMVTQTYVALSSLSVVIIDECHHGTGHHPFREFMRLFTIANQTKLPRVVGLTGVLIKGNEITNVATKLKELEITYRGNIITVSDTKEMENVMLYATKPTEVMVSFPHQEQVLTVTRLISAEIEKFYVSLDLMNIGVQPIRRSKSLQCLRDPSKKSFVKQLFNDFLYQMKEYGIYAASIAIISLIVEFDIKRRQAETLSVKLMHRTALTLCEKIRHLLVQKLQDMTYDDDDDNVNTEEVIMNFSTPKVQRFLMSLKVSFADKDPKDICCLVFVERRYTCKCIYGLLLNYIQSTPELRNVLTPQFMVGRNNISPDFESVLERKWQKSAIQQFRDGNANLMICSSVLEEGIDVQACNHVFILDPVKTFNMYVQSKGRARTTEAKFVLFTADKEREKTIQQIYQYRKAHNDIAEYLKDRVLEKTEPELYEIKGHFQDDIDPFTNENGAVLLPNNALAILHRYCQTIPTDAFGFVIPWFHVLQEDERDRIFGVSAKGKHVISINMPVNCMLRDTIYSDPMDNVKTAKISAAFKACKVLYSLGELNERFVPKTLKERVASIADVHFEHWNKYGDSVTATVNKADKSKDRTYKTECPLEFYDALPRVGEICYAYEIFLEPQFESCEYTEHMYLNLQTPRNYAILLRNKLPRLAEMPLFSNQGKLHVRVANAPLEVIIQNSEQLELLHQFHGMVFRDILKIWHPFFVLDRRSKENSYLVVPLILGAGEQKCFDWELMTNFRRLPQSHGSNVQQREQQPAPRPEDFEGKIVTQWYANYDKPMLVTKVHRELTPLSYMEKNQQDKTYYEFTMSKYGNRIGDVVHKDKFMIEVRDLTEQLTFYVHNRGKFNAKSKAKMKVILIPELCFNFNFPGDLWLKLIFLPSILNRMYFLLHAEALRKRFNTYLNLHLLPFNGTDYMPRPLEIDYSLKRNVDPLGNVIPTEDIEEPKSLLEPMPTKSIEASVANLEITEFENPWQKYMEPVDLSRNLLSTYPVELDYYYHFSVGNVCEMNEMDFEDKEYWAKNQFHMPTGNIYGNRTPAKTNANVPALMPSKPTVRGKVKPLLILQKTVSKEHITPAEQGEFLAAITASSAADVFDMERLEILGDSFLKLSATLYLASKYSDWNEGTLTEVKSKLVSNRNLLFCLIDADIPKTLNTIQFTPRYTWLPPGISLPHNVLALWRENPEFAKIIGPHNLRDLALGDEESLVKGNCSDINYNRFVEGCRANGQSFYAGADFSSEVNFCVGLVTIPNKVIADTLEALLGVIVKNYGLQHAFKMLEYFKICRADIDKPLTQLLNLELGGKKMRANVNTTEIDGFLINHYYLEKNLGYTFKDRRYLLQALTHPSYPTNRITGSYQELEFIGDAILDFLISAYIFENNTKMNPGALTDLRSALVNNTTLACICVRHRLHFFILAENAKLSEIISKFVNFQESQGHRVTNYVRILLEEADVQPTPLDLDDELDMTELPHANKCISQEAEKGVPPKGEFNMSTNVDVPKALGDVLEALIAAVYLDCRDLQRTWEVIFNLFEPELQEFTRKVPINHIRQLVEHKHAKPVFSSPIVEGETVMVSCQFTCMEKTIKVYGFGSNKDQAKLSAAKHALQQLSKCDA
UniProt Q12154, sequence (whole entry, unmodified, looked up): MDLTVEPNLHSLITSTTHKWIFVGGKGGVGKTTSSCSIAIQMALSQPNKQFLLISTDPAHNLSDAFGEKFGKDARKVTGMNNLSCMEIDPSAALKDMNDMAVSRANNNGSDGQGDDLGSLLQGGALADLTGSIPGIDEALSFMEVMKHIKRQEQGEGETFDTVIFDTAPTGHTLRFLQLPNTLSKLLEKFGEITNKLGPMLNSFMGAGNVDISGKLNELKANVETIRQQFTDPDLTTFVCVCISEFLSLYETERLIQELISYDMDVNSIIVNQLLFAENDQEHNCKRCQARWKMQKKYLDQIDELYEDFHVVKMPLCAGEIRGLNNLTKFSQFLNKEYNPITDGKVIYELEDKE

| Substance | tested on | test | test system | conditions | how to read | measurement | value |
| --- | --- | --- | --- | --- | --- | --- | --- |
| B1 (enzyme) | CO/N=C(\C(=O)N[C@@H]1C(=O)N2C(C(=O)O)=C(COC(C)=O)CS[C@H]12)c1csc(N)n1 | steady-state kinetics |  | pH 7 |  | kcat/Km | 7200 ± 1000 M⁻¹ s⁻¹ |
| B2 (GET2 1-106) | GET3 D57N, Alexa488 label (Saccharomyces cerevisiae, UniProt Q12154) | FRET |  | together with: nucleotides |  | binding | binds |
| HSPA5 (Homo sapiens, UniProt P11021) | HSP90B1 D149N (Homo sapiens, UniProt P14625) | pull-down |  |  |  | binding | binds |
| RAKMPRALDFSGHTHPVATFQPSRPESVNDLFLCPQKELTRGVRPTPR (IFNLR1 residues 260-307 (Homo sapiens)) | JAK1 31-577 (Homo sapiens, UniProt P23458) | crystal structure | peptide |  |  | binding | binds |
| SIYNFEKL | OT-I CD8+ T cells |  | peptide | concentration not given, primed 5 d, OVA257 100 ng/mL restimulation, together with: 20 ng/mL TGF-beta1 from day 2 |  | IL-2+ cells | 75.6% |
| FGF8b (Homo sapiens) | FGFR3 isoform IIIc (unknown, UniProt Q61851) | cell proliferation, MTT | BaF3-FGFR3c | 20 nM, 48 h, together with: chondroitin sulfate C 4.9 µg/mL | reference: FGF 1 with heparin, higher = more proliferation | cell proliferation | 32% |
| B3 (PHKG1) | PHKA1, phosphorylated incl. pS1018 (Homo sapiens, UniProt P46020) | cryo-EM |  |  |  | binding | binds |
| B4 (mel-26) | mei-1 S113A, phosphorylated by MBK-2 (Caenorhabditis elegans, UniProt P34808) | far-Western |  | 4 °C, denatured |  | binding | binds |
| B5 (UGT1A9) | Cc1ccc2oc(-c3ccc4c(c3)OCO4)c(O)c(=O)c2c1 | steady-state kinetics |  | pH 7.4, 37 °C |  | Vmax/Km | 91000 µL/min/mg |
| loqs (Drosophila melanogaster, UniProt Q9VJY9-4) | DCR-2 (Drosophila melanogaster, UniProt A1ZAW0) | single-molecule TIRF |  | pH 8.0, KCl 100 mM, together with: Cy5-labeled dsRNA 100 pM |  | binding | binds |
| B6 (slc12a2 1-202) | SLC12A3 132-1021 E240A (Homo sapiens, UniProt P55017) | cryo-EM |  | together with: polythiazide 500 µM |  | binding | binds |
| B7 (Rrp47/Rrp6) | SKI6/RRP45/RRP42/MTR3/RRP46/RRP43/CSL4/RRP4/RRP40 Exo9 core (Saccharomyces cerevisiae) | SEC |  |  |  | binding | binds |
| B8 (DLAT 214-416) | T1, PDHA1/PDHB 30-390 E234A on β (Homo sapiens) | SPR |  |  |  | binding | binds |

A few entries again:
| Substance | tested on | test | test system | conditions | how to read | measurement | value |
| --- | --- | --- | --- | --- | --- | --- | --- |
| B7 (Rrp47/Rrp6) | SKI6/RRP45/RRP42/MTR3/RRP46/RRP43/CSL4/RRP4/RRP40 Exo9 core (Saccharomyces cerevisiae) | SEC |  |  |  | binding | binds |
